Measurements of several laboratories.
Each numbered part is a random draw from the data of one study; scales do not carry over between parts.

Set 1
Target: Interferon regulatory factor 5, full length, phosphomimetic (IRF5, Homo sapiens, UniProt Q13568-2, residues 1-514, S451D/S453D/S456D/S462D)
Technique: protein-binding microarray
Molecule type: double-stranded DNA, one strand shown
Matrix: in vitro
Tested at: 940 nM top
Notes: 60-bp whole probe
Added: salmon DNA 0.4 mg/ml
Reference: random background probes
Direction: higher = stronger binding
All sequences stand within: GCCTAGCAC … GTCTTGATTCGCTTGACGCTGCTG
Strand | fitted relative affinity [z-score]
TTTTTTTTCACTATTGCTTCGTGCTAG | 2.26
TTAGGTATCGTTTTCCTTTAGTGCTAG | 6.47
TGAGGTCTCGGTCTCGGTTAGTGCTAG | 3.74
TCAAGTTGTACTTTCTAACTGTGCTAG | 0.0199
CTTCCACTTAGGGTGGCTGGGTGCTAG | -0.159
GTAGGTATCGACTTTCGGTTAGTGCTA | 5.95
CCATTTTGGTTTTCTCTATTGGTGCTA | 1.41
GACGGACTTGGTCTCGGGACGTGCTAG | 0.342
GAGGGTGTTCTTTTCTGTTGGTGCTAG | 0.449
GACTATATCAGACTGGAGACGTGCTAG | -0.357
GACGGTATACTACTGCTGACGTGCTAG | -0.19

Set 2
Target: Prothrombin, mature alpha-thrombin (F2, Homo sapiens, UniProt P00734)
Technique: aptamer microarray, sandwich
Molecule type: DNA with 2'F-ANA
Matrix: in vitro
Tested at: 200 nM
Notes: whole 15-mer aptamer, many near background
Added: Cy3 exosite-II aptamer, 400 nM
Direction: higher = stronger binding
Strand: GGTTGGTGTGGTTGG
Modification | mean fluorescence intensity [a.u.]
2'F-ANA at 4 5 7 9 10 13 14 | 72.7
2'F-ANA at 1 2 4 5 7 8 10 11 12 14 15 | 48.6
2'F-ANA at 1 2 9 11 12 14 | 60.6
2'F-ANA at 1 2 4 10 11 12 13 14 15 | 48.1
2'F-ANA at 1 2 5 6 7 8 11 13 14 15 | 50.8
2'F-ANA at 1 3 9 10 12 14 15 | 60.8
2'F-ANA at 1 2 7 8 9 10 12 13 15 | 70.4
2'F-ANA at 2 5 6 7 8 9 10 12 13 | 51.3
2'F-ANA at 3 4 6 7 10 14 | 184
2'F-ANA at 1 3 5 9 11 15 | 57.1
2'F-ANA at 2 4 5 7 8 9 10 11 12 14 15 | 47.4
2'F-ANA at 1 2 7 8 9 10 13 14 | 45.4
2'F-ANA at 1 8 11 14 | 53.1
2'F-ANA at 1 2 3 6 10 | 64.6
2'F-ANA at 2 3 4 7 8 11 14 15 | 349
2'F-ANA at 1 4 5 7 9 10 | 45.9
2'F-ANA at 1 4 5 7 8 11 13 15 | 50.1
2'F-ANA at 2 3 5 7 11 12 13 | 161
2'F-ANA at 1 4 7 9 10 11 12 | 57.5
2'F-ANA at 1 3 4 8 9 11 13 14 15 | 63.6
2'F-ANA at 2 3 4 6 7 11 13 | 333
2'F-ANA at 2 3 5 9 10 12 13 | 86
2'F-ANA at 1 7 8 10 13 14 | 58.8
2'F-ANA at 2 3 8 10 11 12 14 15 | 271

Set 3
Target: Histone acetyltransferase KAT6A, both winged helices, GST fusion (KAT6A, Homo sapiens, UniProt Q92794, residues 1-181)
Technique: protein binding microarray
Molecule type: double-stranded DNA, one strand shown
Matrix: in vitro
Tested at: not given
Notes: 8-mer, flanks averaged, mean of 2 arrays, mostly near background
Reference: not given
Direction: higher = stronger binding
Construct (chain): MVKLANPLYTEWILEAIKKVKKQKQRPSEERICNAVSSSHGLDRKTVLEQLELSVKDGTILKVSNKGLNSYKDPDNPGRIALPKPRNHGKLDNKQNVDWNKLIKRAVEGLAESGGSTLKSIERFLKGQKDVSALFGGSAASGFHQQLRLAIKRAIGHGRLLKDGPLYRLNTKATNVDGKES
Strand | E-score
AGTCAAGA | -0.138
AAAGATGC | -0.0784
CATTATGG | 0.0354
GAGATGTA | -0.072
ACAGGCTC | -0.0969
GCACTCAA | -0.0527
GTATTGAA | -0.00262
TCGCAGAA | 0.0362
CTTTAGGA | -0.159
AGTGATAG | -0.166
AGGCAAAT | -0.203
GGCGACCC | 0.0809
GCACCACC | -0.0153
ACTTGAAT | -0.155
CAGTAGCA | -0.072
CCAAGGCG | 0.169
AGTATCGA | 0.107

Set 4
Target: Hepatocyte nuclear factor 3-beta, forkhead domain (FOXA2, Homo sapiens, UniProt Q9Y261, residues 142-269)
Technique: protein-binding microarray
Molecule type: double-stranded DNA, one strand shown
Matrix: in vitro
Tested at: not given
Notes: k-mer, scored over probes, only values ≥0.25
Direction: higher = stronger binding
Residues (chain): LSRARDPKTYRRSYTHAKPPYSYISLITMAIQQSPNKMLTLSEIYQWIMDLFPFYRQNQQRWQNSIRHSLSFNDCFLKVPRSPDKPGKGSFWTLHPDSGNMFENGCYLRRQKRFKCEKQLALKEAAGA
Strand | E-score
ATATGGAT | 0.314
GACACACA | 0.325
AATATTTA | 0.402
ACATGTTA | 0.32
CAAACATG | 0.315
ATGTGTAA | 0.331
GATATCTA | 0.252
ACAACTAT | 0.305
AACAATTG | 0.262
ACACACAC | 0.363
ATAATTAA | 0.3
ACTATATC | 0.364
AATACCTA | 0.314
ATCATATA | 0.335
TACAGGTA | 0.256
CAAATACG | 0.294
TAGTATGA | 0.342
GTTTATGA | 0.254
GTTAAATA | 0.28
ACATAAAC | 0.329
ATACAAAA | 0.325

Set 5
Target: RING finger protein unkempt homolog, zinc fingers 1-6, GST-SBP tag (UNK, Homo sapiens, UniProt Q9C0B0, residues 30-357)
Sequence of UniProt Q9C0B0 (30-357, looked up): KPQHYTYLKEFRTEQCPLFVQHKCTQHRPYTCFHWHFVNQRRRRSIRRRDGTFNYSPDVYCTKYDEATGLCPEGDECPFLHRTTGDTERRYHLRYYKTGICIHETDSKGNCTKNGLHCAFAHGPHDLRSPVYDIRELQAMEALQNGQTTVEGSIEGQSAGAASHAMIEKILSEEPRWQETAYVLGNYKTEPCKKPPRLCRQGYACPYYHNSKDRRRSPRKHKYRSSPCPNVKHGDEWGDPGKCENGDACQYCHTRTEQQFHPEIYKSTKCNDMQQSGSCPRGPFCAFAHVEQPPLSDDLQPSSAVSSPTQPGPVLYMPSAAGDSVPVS
Technique: RNA Bind-n-Seq
Molecule type: RNA
Matrix: in vitro
Tested at: not given
Notes: RNA with constant flanks, human-mouse chimeric sites, ends assumed
Reference: input RNA pool
Direction: higher = stronger binding
All sequences stand within: GGGAGUUCUACAGUCCGACGAUC … CAACAGAGGAUUGAGCAUCA
Strand | bound/input enrichment [ratio]
GGACAUCUGUCAAAUUGUUAUGUUCCUGUGAAACAAGUGAACACUCUGAUACACUUCAUCUGCUUGUACAUCUGUAUGAUAGAGAAACAGAAAUCUAUUAAUCCAAGAUGAAUUCAACUU | 0.119
AAAGAGUGGAUAGAGUGUGCACACGGGAUCGGUGGGACCCGGGCGAAAAAGGAGUGCAAGAUAGAAUUCGAUGACUUCGAAGAGUGCUUGCUUCGGUACAAAACGAUGAGGCGAAUGCAU | 0.34
UCAUUUUGCUCGGGUUAUUCUUUCCUUUAGGAAAAGCCUAAAGAUUAGGUUGUAAGAAAAACAGAAGCCAUGUUUCGAAGACCUGUAUUACAGGUAUUUCGUCAGUUUGUAAGACAUGAG | 0.604
UUACCCGAGAACGAGGAUGAAUUGGAGAGCACCAAUAGGCGCUACACCAAGAGGGACUGCAGCACUUUCCUCAGAACUAGUGAGACGGGCAUCGUGGACCAGGUCAUGGUCACUCUCAAC | 0.2
UCUUUAAAAAAAAAAUUACAGGAAAAUACAGUGCUUUAUGGAGUAAAGAUCCACGUUCAAGCUCAAAGAGCAAAGGCUUUGCACGGAGCUCAAACAUCUGAUGAAGAAAGAUUUCUGAGA | 0.158
GGAAGCACAAUGAUGGAAAUAGAUGGCGACAAAGGCAAGCAGGGCGGGCCCACCUACUACAUAGACACCAAUGCCCUCCGCGUGCCCAGGGAGAACAUGGAGGCCAUCUCACCACUCAAG | 0.21
AAUUUCCUGUCAUACUUUUUAGACAUUCACAUCAGACUUACAGAGCAUUGGGCCUCUUUCUAGGUUUGAAUUAUUUCUCAGCUAUGGAUAUGAUCAAAUGAGAACACUGCUUAACUAAUG | 0.636
UGGGCACUCUAUCAGAUAUAUUAAUUUUUAAAUGUAGAUGUAAUUUUAAAAAUGAAUGGCUACUUUACACGUUUAACUAGGGUUUUACUAUAUAUGUGUACAUAUGUAUAUAUAUAUAUA | 18.8

Set 6
Target: PABPC1L2, full length, GST fusion (mouse, UniProt A0ABA7IW68)
Technique: RNAcompete
Molecule type: RNA
Matrix: in vitro
Tested at: 20 nM
Notes: 7-mer, probes averaged, single round
Reference: mean of 7-mers
Direction: higher = stronger binding
Construct (chain): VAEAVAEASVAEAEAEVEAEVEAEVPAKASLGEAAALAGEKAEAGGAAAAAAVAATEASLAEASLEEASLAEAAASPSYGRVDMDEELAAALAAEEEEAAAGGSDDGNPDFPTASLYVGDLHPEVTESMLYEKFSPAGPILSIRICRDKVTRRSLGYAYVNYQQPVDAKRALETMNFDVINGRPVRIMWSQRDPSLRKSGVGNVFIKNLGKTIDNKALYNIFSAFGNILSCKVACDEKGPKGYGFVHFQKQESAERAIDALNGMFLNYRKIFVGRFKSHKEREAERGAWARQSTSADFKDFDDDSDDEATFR
Strand | 7-mer Z-score
CGUUCUA | -0.32
GAAAUGU | -0.0355
AAUGCAU | 0.126
CGUUUGG | -0.523
CUUUGAU | -0.113
UCGCGCU | -0.362
UUGCUUU | -0.289
AGAGUAU | -0.211
GGCUGUG | -0.0808
GACCUCA | -0.11
CGAAACG | -0.159
AGUCGCG | -0.103
CGGUCUA | -0.237
UCUCCGA | -0.356
AGAGGGU | 0.0225
AAUAUUU | 0.0623
UCUGACA | -0.0899

Set 7
Target: Ras GTPase-activating protein-binding protein 1, full length (G3BP1, Homo sapiens, UniProt Q13283)
Sequence of UniProt Q13283 (whole entry, looked up): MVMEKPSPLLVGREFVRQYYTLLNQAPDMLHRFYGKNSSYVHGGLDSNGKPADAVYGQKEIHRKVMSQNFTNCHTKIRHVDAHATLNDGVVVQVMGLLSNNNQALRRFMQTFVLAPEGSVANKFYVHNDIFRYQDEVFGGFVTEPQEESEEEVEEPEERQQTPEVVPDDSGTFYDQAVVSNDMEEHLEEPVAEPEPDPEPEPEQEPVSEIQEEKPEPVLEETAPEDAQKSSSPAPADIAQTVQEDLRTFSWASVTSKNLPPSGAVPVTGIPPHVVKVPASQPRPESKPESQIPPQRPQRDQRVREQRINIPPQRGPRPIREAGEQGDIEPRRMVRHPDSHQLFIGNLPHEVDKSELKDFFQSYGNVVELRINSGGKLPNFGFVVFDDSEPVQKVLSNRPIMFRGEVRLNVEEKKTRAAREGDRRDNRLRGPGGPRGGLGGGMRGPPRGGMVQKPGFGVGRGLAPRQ
Technique: RNA Bind-n-Seq
Molecule type: RNA
Matrix: in vitro
Tested at: 200 nM
Notes: whole 134-nt RNA, ends assumed
Added: 150 mM LiCl
Reference: input library
Direction: higher = stronger binding
All molecules: 7-deaza-guanosine replaces G
All sequences stand within: GGGAGUUCUACAGUCCGACGAUC … UGGAAUUCUCGGGUGUCAAGG
Strand | log2 enrichment
CUCAAGUCCUGUGCUACACAUCGUAUGUACCGAAUCGGGAAGGAAGGGGAAGGGAAAGUAUUAUGUUACGCCGUUCGGAUCUGCACUUCC | -0.267
CCUCAAGUCCUGUGCUACACAUCGUAUGUACCGAAUCGGGAAGGAAGGGAAGGAAAGUAUUAUGUUACGCCGUUCGGAUCUGCACUUCCA | -0.331
GUCCUGUGCUACACAUCGUAUGUACCGAAUCGGGGUUUGGGGUGGGGAAAAAAAGGGGAAAGUAUUAUGUUACGCCGUUCGGAUCUGCAC | -0.029
UCAAGUCCUGUGCUACACAUCGUAUGUACCGAAUCGGGUGGGUGGGAAAAAGGGAAAGUAUUAUGUUACGCCGUUCGGAUCUGCACUUCC | -0.544
CUCAAGUCCUGUGCUACACAUCGUAUGUACCGAAUCGGGGAAGGGGAAGGAAGGAAAGUAUUAUGUUACGCCGUUCGGAUCUGCACUUCC | -0.823
UCAAGUCCUGUGCUACACAUCGUAUGUACCGAAUCGGUUUGGAGGUUUUUUUGGAAAGUAUUAUGUUACGCCGUUCGGAUCUGCACUUCC | 0.206
AGUCCUGUGCUACACAUCGUAUGUACCGAAUCGGGAAAAAGGGUUUUUUUGGGUGGGAAAGUAUUAUGUUACGCCGUUCGGAUCUGCACU | -1.81
CACAGACAACACGCACUCACACAGACACAGAGGGAAGGGGUUGGGAUGGGGACAGGGUGCACAGCAGGGCGGGGUAGGACCCCAGCCCCU | 0.194
CAAGUCCUGUGCUACACAUCGUAUGUACCGAAUCGGGAAAGGAAAGGGGAAAGGGAAAGUAUUAUGUUACGCCGUUCGGAUCUGCACUUC | 0.0609
CUCAAGUCCUGUGCUACACAUCGUAUGUACCGAAUCGGUUUUUGGUGGUUUGGAAAGUAUUAUGUUACGCCGUUCGGAUCUGCACUUCCA | -0.0898
UCAACAAGAGAUGUUCAAGAACUUUUGACACAAUAUACCAAGUUUGCACAGAUGGUAAAAAAGAUGGGAGGUAUCAAAGGACUUUUCAAA | -1.09

A few entries again (set 3):
Strand | E-score
CATTATGG | 0.0354
AGTCAAGA | -0.138
GAGATGTA | -0.072
ACAGGCTC | -0.0969
GTATTGAA | -0.00262
AGTATCGA | 0.107
